Values quoted from earlier work, collected from citations in different studies.
Lines come from different studies, so protocols differ. ± marks the error that the study gave. ≈ marks a conversion by molar mass, not a printed value.
Chain of UniProt Q9H3Y6 (whole entry, looked up): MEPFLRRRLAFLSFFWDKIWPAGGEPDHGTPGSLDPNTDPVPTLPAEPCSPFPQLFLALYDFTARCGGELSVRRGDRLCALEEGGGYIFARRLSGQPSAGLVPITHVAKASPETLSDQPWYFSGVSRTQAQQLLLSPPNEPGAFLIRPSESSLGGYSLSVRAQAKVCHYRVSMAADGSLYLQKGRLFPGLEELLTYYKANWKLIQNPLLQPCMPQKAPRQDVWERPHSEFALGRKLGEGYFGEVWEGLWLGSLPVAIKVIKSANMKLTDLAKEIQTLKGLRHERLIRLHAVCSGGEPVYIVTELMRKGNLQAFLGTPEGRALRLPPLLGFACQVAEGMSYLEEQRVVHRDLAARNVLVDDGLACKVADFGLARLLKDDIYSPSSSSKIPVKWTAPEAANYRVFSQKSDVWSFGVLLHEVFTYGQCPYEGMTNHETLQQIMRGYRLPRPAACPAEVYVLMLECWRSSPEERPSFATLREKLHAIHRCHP

CNC(C)C1CCC(N)C(OC2C(N)CC(N)C(OC3OCC(C)(O)C(NC)C3O)C2O)O1 (stereo not drawn) has an MIC of 1 µg/mL (≈ 2.09 µM) (Escherichia coli; clinical isolate RKI 6 A-6).
COc1ccccc1[C@H](Cn1c(=O)n(C(C)(C)C(=O)O)c(=O)c2c(C)c(-c3ncco3)sc21)OC1CCOCC1 gave an AUC of 312 ng·h/mL (rat; 3.0 mg/kg, at maximal efficacious dose).
CS(=O)(=O)CCNCc1ccc(-c2ccc3ncnc(Nc4ccc(OCc5cccc(F)c5)c(Cl)c4)c3c2)o1 has a solubility of less than 1000 µg/mL (water).
For Nc1cccc2c1C(=O)N(C1CCC(=O)NC1=O)C2=O (stereo not drawn), “incidence of grade 3 thrombocytopenia” read 21% (relapsed refractory multiple myeloma patients; dose not given, grade up to 4).
C[C@@H](Oc1cc(-c2cnn(C3CCNCC3)c2)cnc1N)c1c(Cl)ccc(F)c1Cl — result for “adverse event incidence”: 46% (measured: vomiting; treatment-naive ALK-positive NSCLC patients; dose not given, monotherapy trial).
With CC#CC(=O)N1CCC[C@H]1c1nc(-c2ccc(C(=O)Nc3ccccn3)cc2)c2c(N)nccn12 the AUC(0-last) was 1850 ng·h/mL (human; 100 mg twice daily).
Cc1cn([C@H]2C=C[C@@H](CO)O2)c(=O)[nH]c1=O gave an oral bioavailability of 98% (mouse; 25 mg/kg).
O=C1CCc2cc(OCCCCc3nnnn3C3CCCCC3)ccc2N1 gave a free Cmax of 128 nM (human).
CC(C)(c1ccc(O)cc1)c1ccc(O)cc1 has a half-life of 4.9 h (mouse; 100 mg/kg).
The unbound fraction of CN(C)C(=N)N=C(N)N is reported as 1 (healthy human subjects).
For C#C[C@]1(O)CC[C@H]2[C@@H]3CCC4=CC(=NO)CC[C@@H]4[C@H]3CC[C@@]21CC (mixture of isomers), “AUC(0-24 h), geometric mean” read 19.2 ng·h/mL (human, fed; 0.215 mg norgestimate, after 7 days dosing).
For CC(=O)O[C@H]1C(=O)[C@@]2(C)[C@H]([C@H](OC(=O)c3ccccc3)[C@]3(O)C[C@H](OC(=O)[C@H](O)[C@@H](NC(=O)c4ccccc4)c4ccccc4)C(C)=C1C3(C)C)[C@]1(OC(C)=O)CO[C@@H]1C[C@@H]2O, “grade 3 peripheral neuropathy incidence” read 3% (advanced urothelial cancer patients; 80 mg/m2 weekly, monotherapy).
CN1C(N)=N[C@](C)(c2cc(NC(=O)c3ccc(F)cn3)ccc2F)CS1(=O)=O has a free Cmax of 87 nM (plasma).
For COCCc1ccc(OCC(O)CNC(C)C)cc1 (stereo not drawn), “Cmax, geometric mean” read 21.9 ng/mL (human; 100 mg).
With FC(F)(F)c1ccc(CNc2ccc(Cc3c[nH]c4ncc(Cl)cc34)cn2)cn1 the AUC(0-24 h) was 56200 ng·h/mL (patients, plasma; oral, 600 mg once daily, day 1, mean).
Cc1cccc(Nc2ccccc2C(=O)O)c1C has an unbound Cmax of 8300 nM (plasma; concentration not given).
CC(C)(CO)c1cc2cc(NC(=O)C3(c4ccc5c(c4)OC(F)(F)O5)CC3)c(F)cc2n1C[C@@H](O)CO: “fraction unbound in enterocytes” 1 (human).
Nc1cc(C(F)(F)F)c(-c2nc(N3CCOCC3)nc(N3CCOCC3)n2)cn1 gave a remaining activity of 94% (SRMS (Homo sapiens, UniProt Q9H3Y6); enzyme activity; 10 µM; reference: untreated).
With CC(C)[C@H](N)C(=O)OCC(CO)OCn1cnc2c(=O)[nH]c(N)nc21 (stereo partly drawn) the oral bioavailability was 58% (monkey; 10 mg/kg).
Cc1nc(NC(=O)N2CCC[C@H]2C(N)=O)sc1-c1ccnc(C(C)(C)C(F)(F)F)c1 has a dose excreted of 81% (human, feces; oral, 400 mg, radiolabelled, fasted; reference: dose).
Cc1nsc(-c2nnc3n2CCN(C(=O)c2ccc(F)cc2)[C@@H]3C)n1 has a CL/F of 22.9 L/h (human non-smokers; oral, highest reported mean, DDI cohort).
Cc1ccc(Nc2nccc(N(C)c3ccc4c(C)n(C)nc4c3)n2)cc1S(N)(=O)=O.Cl gave a crossover pressure of 180 to 200 bar (supercritical CO2).
For Nc1cccc2c1C(=O)N(C1CCC(=O)NC1=O)C2=O (stereo not drawn), the solubility was less than 1000 µg/mL (water).
With C[C@@H]1C[C@H]2[C@@H]3CCC4=CC(=O)C=C[C@]4(C)[C@@]3(F)[C@@H](O)C[C@]2(C)[C@@]1(O)C(=O)CO the diarrhoea incidence was 0% (human; concentration not given, clinical).
The MIC of CC1(C)S[C@@H]2[C@H](NC(=O)[C@H](N)c3ccccc3)C(=O)N2[C@H]1C(=O)O is reported as greater than 16 µg/mL (Enterobacter cloacae; clinical isolate RKI 1026/14-1).
CCCS(=O)(=O)Nc1ccc(F)c(C(=O)c2c[nH]c3ncc(-c4ccc(Cl)cc4)cc23)c1F — result for “volume of distribution”: 7.9 mL (mice, average weight 30 g; dose not given).
The crossover pressure of CN1CCC[C@@H]1CCO[C@](C)(c1ccccc1)c1ccc(Cl)cc1 is reported as 140 to 160 bar (supercritical CO2).
C[C@@H]1CN(c2c(F)c(N)c3c(=O)c(C(=O)O)cn(C4CC4)c3c2F)C[C@H](C)N1 gave a free Cmax of 4400 nM (human).
With COc1cc(N2CCC(N3CCN(C)CC3)CC2)ccc1Nc1ncc(Cl)c(Nc2ccccc2P(C)(C)=O)n1 the AUC(0-inf) was 13500 ng·h/mL (healthy subjects; dose not given, CYP3A inhibition, single dose, together with: itraconazole 200 mg twice daily).
With CC(C)(C)NCC(O)c1cc(O)cc(O)c1 (stereo not drawn) the systemic clearance was 3.67 mL/min/kg (human).
With O=C(c1cc(Cc2n[nH]c(=O)c3ccccc23)ccc1F)N1CCN(C(=O)C2CC2)CC1 the Cmin was 316 ng/mL (human; oral tablet, 100 mg twice daily, multiple dose).
With Cn1c(Cn2ccc(C(F)(F)F)c(Oc3cc(Cl)cc(C#N)c3)c2=O)n[nH]c1=O the Cmin reduction was 70 to 85% (human; dose not given, moderate induction, together with: efavirenz).
CCC(C)n1ncn(-c2ccc(N3CCN(c4ccc(OCC5COC(Cn6cncn6)(c6ccc(Cl)cc6Cl)O5)cc4)CC3)cc2)c1=O (stereo not drawn) gave a Cmax of 900 nM (plasma; concentration not given, total, steady state).
With Nc1nc(=O)n(C2CSC(CO)O2)cc1F (stereo not drawn) the bioavailability was 73% (rat; 1000 mg/kg).
The solubility of CCC1(c2ccccc2)C(=O)NCNC1=O is reported as less than 1000 µg/mL (water).
With C[Si](C)(C)O[Si](C)(C)O[Si](C)(C)O[Si](C)(C)C the log KOA was 4.64 (dry 1-octanol/air; 25 °C).
Under “QTc interval change”, COc1ccc(C[C@@H](C)[C@@H](C)Cc2ccc(OC)c(OC)c2)cc1OC is recorded as less than 10 ms (human; intravenous, dose not given, all cohorts except 1500 mg).
Under “incidence of anorexia”, Cn1c(=O)c2c(ncn2CC(=O)Nc2ccc(-c3ccccc3)nn2)n(C)c1=O is recorded as roughly 25% (human, advanced cancer; dose not given, phase I trial; reference: subjects).
CO[C@H]1/C=C/O[C@@]2(C)Oc3c(C)c(O)c4c(O)c(c(/C=N/N5CCN(C)CC5)c(O)c4c3C2=O)NC(=O)/C(C)=C\C=C\[C@H](C)[C@H](O)[C@@H](C)[C@@H](O)[C@@H](C)[C@H](OC(C)=O)[C@@H]1C has a solubility of less than 1000 µg/mL (water).
CC(=O)S[C@@H]1CC2=CC(=O)CC[C@]2(C)[C@H]2CC[C@@]3(C)[C@@H](CC[C@@]34CCC(=O)O4)[C@H]12 has a solubility of 25 µg/mL (≈ 60 µM) (FaSSIF; literature value).
For CCCCCCCN(CC)CCCC(O)c1ccc(NS(C)(=O)=O)cc1 (stereo not drawn), the free Cmax was 8.12 nM (human).
With Cc1cn([C@H]2C[C@H](N=[N+]=[N-])[C@@H](CO)O2)c(=O)[nH]c1=O the oral bioavailability was 82% (mouse; 30 mg/kg).
The Cavg,ss of CCS(=O)(=O)N1CC(CC#N)(n2cc(-c3ncnc4[nH]ccc34)cn2)C1 is reported as 19.9 ng/mL (rheumatoid arthritis patients; 4 mg).
For CC[C@H](C)CCCCC(=O)N[C@@H](CCN)C(=O)N[C@H](C(=O)N[C@@H](CCN)C(=O)N[C@H]1CCNC(=O)[C@H]([C@@H](C)O)NC(=O)[C@H](CCN)NC(=O)[C@H](CCN)NC(=O)[C@H](CC(C)C)NC(=O)[C@@H](Cc2ccccc2)NC(=O)[C@H](CCN)NC1=O)[C@@H](C)O, the total clearance was 1.96 ± 0.14 L/h (healthy Chinese subjects; 0.75 mg/kg single dose).
With CNCc1cc(-c2ccccc2F)n(S(=O)(=O)c2cccnc2)c1 the Tmax was 1.5 h (human, plasma; 15 mg single dose, observed clinical data).
The remaining compound of [O-][S+](CCN1CCN(CC(O)Cc2ccccc2)CC1)C(c1ccc(F)cc1)c1ccc(F)cc1 (stereo not drawn) is reported as 4% (mouse liver microsomes; 1 h).
Cc1ccc([C@@H]2O[C@H](CO)[C@@H](O)[C@H](O)[C@H]2O)cc1Cc1ccc(-c2ccc(F)cc2)s1 has a clearance of 16.4 L/h (human, preserved kidney function; 100 mg, steady state, mean).
With C[C@H]1COCCN1c1nc(-c2cnc(N)cc2C(F)F)nc(N2CCOCC2)n1 the GI50 was 426 nM (44 tumour cell lines).
For CNC(=O)c1cc(Oc2ccc(NC(=O)Nc3ccc(Cl)c(C(F)(F)F)c3)cc2)ccn1, the Cmax was 21500 nM (plasma; concentration not given, total, steady state).
Nc1ccccc1NC(=O)c1ccc(CNC(=O)OCc2cccnc2)cc1 gave a solubility of less than 1000 µg/mL (water).
CCC(C)n1ncn(-c2ccc(N3CCN(c4ccc(OCC5COC(Cn6cncn6)(c6ccc(Cl)cc6Cl)O5)cc4)CC3)cc2)c1=O (stereo not drawn): “unbound fraction in microsomes” 0.16 (liver microsomes).

For quick reference, copied from above:
Under “incidence of anorexia”, Cn1c(=O)c2c(ncn2CC(=O)Nc2ccc(-c3ccccc3)nn2)n(C)c1=O is recorded as roughly 25% (human, advanced cancer; dose not given, phase I trial; reference: subjects).
With CC(C)(C)NCC(O)c1cc(O)cc(O)c1 (stereo not drawn) the systemic clearance was 3.67 mL/min/kg (human).
The unbound fraction of CN(C)C(=N)N=C(N)N is reported as 1 (healthy human subjects).
Nc1ccccc1NC(=O)c1ccc(CNC(=O)OCc2cccnc2)cc1 gave a solubility of less than 1000 µg/mL (water).
With COc1cc(N2CCC(N3CCN(C)CC3)CC2)ccc1Nc1ncc(Cl)c(Nc2ccccc2P(C)(C)=O)n1 the AUC(0-inf) was 13500 ng·h/mL (healthy subjects; dose not given, CYP3A inhibition, single dose, together with: itraconazole 200 mg twice daily).
With CC(C)[C@H](N)C(=O)OCC(CO)OCn1cnc2c(=O)[nH]c(N)nc21 (stereo partly drawn) the oral bioavailability was 58% (monkey; 10 mg/kg).
